# Results pooled from the literature.
# Numbers after ± are the reported error.
# gag-pol protease: Gag-Pol polyprotein, protease (gag-pol, Human immunodeficiency virus type 1 group M subtype B, UniProt P04585)
# gag-pol K653N reverse transcriptase: Gag-Pol polyprotein, reverse transcriptase (gag-pol, Human immunodeficiency virus type 1 group M subtype B, UniProt P04585, K653N)
# Spike glycoprotein: Spike glycoprotein (Severe acute respiratory syndrome coronavirus 2, UniProt P0DTC2)
Substance,target or system,assay,system,setting,how to read,measurement,value
COc1ccc(S(=O)(=O)N(CC(C)C)C[C@@H](O)[C@H](Cc2ccccc2)NC(=O)O[C@@H]2CCC[C@]23CCO[C@H](c2cccc(OC)c2)C3)cc1,gag-pol protease,"enzyme activity, inhibitor",,,,Ki,17.4 nM
CNC(=O)[C@@H](NC(=O)[C@H](CC(C)C)[C@H](O)C(=O)NO)C(C)(C)C,Daboia russelii venom proteases (SVMP),"protease activity, inhibitor",RJ population,"100 µM, together with: azocasein substrate",relative to: venom alone,remaining activity,0%
Cc1cn([C@H]2C[C@H](N=[N+]=[N-])[C@@H](CO[P@](=O)(O)O[P@](=O)(O)OP(=O)(O)O)O2)c(=O)[nH]c1=O,gag-pol K653N reverse transcriptase,inhibitor,HIV-1,,,IC50,563 nM
AaH II scorpion toxin,rat Nav1.2a/Kv2.1 VSD IV chimera R1629A/L1630A,two-electrode voltage clamp,Xenopus oocytes,22 °C,,Kd,193 ± 42 nM
Cn1cnc(Cn2c(=O)[nH]/c(=N\c3cc4cn(C)nc4cc3Cl)n(Cc3cc(F)c(F)cc3F)c2=O)n1,,,"human, severe renal impairment","oral, 375 mg, vessel puncture site haemorrhage TEAE, Severe severity",,patients with adverse event,0%
CC[C@H](C)[C@H](NC(=O)[C@H](CC(C)C)NC(=O)[C@H](Cc1c[nH]c2ccccc12)NC(=O)[C@H](CCC(N)=O)NC(=O)[C@@H](NC(=O)[C@H](Cc1ccccc1)NC(=O)[C@H](C)NC(=O)[C@H](CCCCNC(=O)COCCOCCNC(=O)COCCOCCNC(=O)CC[C@H](NC(=O)CCCCCCCCCCCCCCCCCCC(=O)O)C(=O)O)NC(=O)[C@H](CCC(N)=O)NC(=O)[C@H](C)NC(=O)[C@@H](NC(=O)[C@H](CCCCN)NC(=O)[C@H](CC(=O)O)NC(=O)[C@H](CC(C)C)NC(=O)C(C)(C)NC(=O)[C@@H](NC(=O)[C@H](CO)NC(=O)[C@H](Cc1ccc(O)cc1)NC(=O)[C@H](CC(=O)O)NC(=O)[C@H](CO)NC(=O)[C@@H](NC(=O)[C@H](Cc1ccccc1)NC(=O)[C@@H](NC(=O)CNC(=O)[C@H](CCC(=O)O)NC(=O)C(C)(C)NC(=O)[C@@H](N)Cc1ccc(O)cc1)[C@@H](C)O)[C@@H](C)O)[C@@H](C)CC)[C@@H](C)CC)C(C)C)C(=O)N[C@@H](C)C(=O)NCC(=O)NCC(=O)N1CCC[C@H]1C(=O)N[C@@H](CO)C(=O)N[C@@H](CO)C(=O)NCC(=O)N[C@@H](C)C(=O)N1CCC[C@H]1C(=O)N1CCC[C@H]1C(=O)N1CCC[C@H]1C(=O)N[C@@H](CO)C(N)=O,,item: treatment-emergent catheter site bruise,healthy subjects,"4.5 mg, multiple ascending dose",,subjects with adverse event,16.7%
NCCc1c(SSc2[nH]c3cc(Br)ccc3c2CCN)[nH]c2cc(Br)ccc12,"KCNA4 (Homo sapiens, UniProt P22459)","inactivation time constant, whole-cell patch clamp",CHO-K1,,,Kd,1600 ± 700 nM
C[C@H](Cn1cnc2c(N)ncnc21)OCP(=O)(O)O,gag-pol K653N reverse transcriptase,inhibitor,HIV-1,,,IC50,1065 ± 1.21 nM
CC(C)=CCc1c(O)ccc(C(=O)/C=C/c2ccc(O)cc2)c1O,Spike glycoprotein,binding,,,,Kd,5700 nM
N[C@@H](CCCc1c[nH]c2ccccc12)C(=O)O,tryptophanase (Bacteroides thetaiotaomicron),"enzyme activity, inhibitor",Bacteroides thetaiotaomicron,,,Ki,> 250000 nM
COc1ccc(S(=O)(=O)N(CC(C)C)C[C@@H](O)[C@H](Cc2ccccc2)NC(=O)O[C@H]2CCC[C@]23CCO[C@H](c2cc(OC)cc(OC)c2)C3)cc1,gag-pol protease,"enzyme activity, inhibitor",,,,Ki,976 nM
O=C(/C=C/c1ccc(O)c(O)c1/C=C/c1ccc(O)c(O)c1)O[C@H](Cc1ccc(O)c(O)c1)C(=O)O,Spike glycoprotein,"binding, biolayer interferometry",,,,Kd,8080 nM
N[C@@H](C[C@]1(C(=O)O)C[C@H]2OC[C@@H](O)[C@@H](O)[C@H]2O1)C(=O)O,"Glutamate receptor ionotropic, kainate 3 (Rattus norvegicus, UniProt P42264, F446Y/T520A)","ligand displacement, radioligand",,,,Ki,260 nM
Clc1cc(N2C[C@@H]3CN[C@@H]3C2)cnc1Cl,"Neuronal acetylcholine receptor; alpha4/beta2 (Rattus norvegicus, UniProt P09483+P12390)",,rat,,,Ki,1.3 ± 0.4 nM
CC[C@H](C)[C@H](NC(=O)[C@H](CC(C)C)NC(=O)[C@@H](NC(=O)[C@@H](NC(=O)[C@H](CC(C)C)NC(=O)[C@H](CC(=O)O)NC(=O)[C@H](CC(C)C)NC(=O)[C@H](Cc1ccccc1)NC(=O)[C@H](Cc1c[nH]c2ccccc12)NC(=O)[C@@H](NC(=O)[C@H](CC(C)C)NC(=O)[C@H](Cc1ccccc1)NC(=O)[C@H](Cc1ccc(O)cc1)NC(=O)[C@H](Cc1c[nH]c2ccccc12)NC(=O)[C@H](CC(C)C)NC(=O)[C@H](CCCCN)NC(=O)[C@H](Cc1c[nH]c2ccccc12)NC(=O)[C@H](Cc1c[nH]c2ccccc12)NC(=O)[C@H](CCCCN)NC(=O)[C@H](CCCCN)NC(=O)[C@H](CCCCN)NC(=O)[C@@H](N)CCCCN)C(C)C)[C@@H](C)CC)[C@@H](C)CC)C(=O)N[C@@H](CC(C)C)C(=O)N[C@@H](CC(C)C)C(=O)N[C@@H](CC(C)C)C(=O)N[C@@H](Cc1c[nH]c2ccccc12)C(=O)N[C@@H](Cc1c[nH]c2ccccc12)C(=O)N[C@@H](CCCCN)C(=O)N[C@@H](CCCCN)C(=O)N[C@@H](CCCCN)C(=O)N[C@@H](CCCCN)C(=O)O,"Latent membrane protein 1, transmembrane domain 5 (Human herpesvirus 4, UniProt P03230)","TMD5 self-association disruption, fluorescence dequenching","Epstein-Barr virus, C14 betaine micelles",pH 7.4,,EC50,3300 ± 200 nM
Nc1ncnc2c([C@@H]3N[C@H](CO)[C@@H](O)[C@H]3O)c[nH]c12,Marburg virus,surface glycoprotein expression,"HeLa, Musoke","50 µM, 12 h",,inhibition,91.8%
CC(C)C[C@H](NC(=O)[C@H](Cc1ccccc1)NC(=O)[C@@H]1CCCN1C(=O)[C@H](CCCNC(=N)N)NC(=O)[C@H](CCC(=O)O)NC(=O)[C@@H]1CCCN1C(=O)[C@H](CO)NC(=O)[C@@H](N)CCC(=O)O)C(=O)O,"Epithelial sodium channel subunit beta (Homo sapiens, UniProt P51168)",isothermal titration calorimetry,,"recombinant, His and GST tag",,Kd,10 to 100 nM
COc1ccc(S(=O)(=O)N(CC(C)C)C[C@@H](O)[C@H](Cc2ccccc2)NC(=O)O[C@H]2CCC[C@@]23CCO[C@@H](c2ccccc2)C3)cc1,gag-pol protease,"enzyme activity, inhibitor",,,,Ki,1340 nM
CC(=O)O[C@@H]1[C@H](N)[C@@H](OP(=O)(O)O)[C@@]2(C(=O)O)CS[C@@](O)(C(N)=O)[C@@H]1O2,"DNA-directed RNA polymerase subunit beta' / DNA-directed RNA polymerase subunit beta (rpoC/rpoB, Escherichia coli, UniProt P0A8T7+P0A8V2)","binding to elongation complex, 6-MI fluorescence titration",wild-type RNAP,3′-deoxy RNA 3′-end Uracil,,Kd,2500 ± 200 nM

# For quick reference, copied from above:
Substance,target or system,assay,system,setting,how to read,measurement,value
COc1ccc(S(=O)(=O)N(CC(C)C)C[C@@H](O)[C@H](Cc2ccccc2)NC(=O)O[C@H]2CCC[C@@]23CCO[C@@H](c2ccccc2)C3)cc1,gag-pol protease,"enzyme activity, inhibitor",,,,Ki,1340 nM
